Measurements from different studies.
Parts stem from different laboratories: compare values within a part only.

Sample 1 — method: RNA Bind-n-Seq; form: RNA; matrix: in vitro; tested at: 200 nM; setting: whole 134-nt RNA, ends assumed; with: 150 mM LiCl; reference: input library; reading: higher = stronger binding; measurement: log2 enrichment; library: 7-deaza-guanosine replaces G
Target: Ras GTPase-activating protein-binding protein 1, full length (G3BP1, Homo sapiens, UniProt Q13283)
Sequence of UniProt Q13283 (whole entry, looked up): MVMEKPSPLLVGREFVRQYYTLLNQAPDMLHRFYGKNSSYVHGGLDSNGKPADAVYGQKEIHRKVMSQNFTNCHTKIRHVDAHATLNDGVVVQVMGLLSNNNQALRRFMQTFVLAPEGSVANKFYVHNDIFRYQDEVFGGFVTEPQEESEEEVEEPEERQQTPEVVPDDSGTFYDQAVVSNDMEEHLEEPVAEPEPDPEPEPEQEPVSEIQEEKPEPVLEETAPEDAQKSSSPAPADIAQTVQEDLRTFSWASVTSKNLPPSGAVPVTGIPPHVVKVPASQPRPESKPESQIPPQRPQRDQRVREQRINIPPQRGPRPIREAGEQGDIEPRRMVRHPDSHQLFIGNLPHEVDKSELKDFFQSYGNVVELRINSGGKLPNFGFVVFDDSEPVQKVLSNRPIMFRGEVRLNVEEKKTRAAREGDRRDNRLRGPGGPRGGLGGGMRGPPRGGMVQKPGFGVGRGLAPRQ
Shared flanks, not repeated: GGGAGUUCUACAGUCCGACGAUC … UGGAAUUCUCGGGUGUCAAGG
UGUGGAGGAGACGGCCGACUCGACGCUGUGCCACAUCCUGAACCUGUACCGGCGGGCCACCUGGCUGCACCAGGCGCUGCGGGAGGGCAC: -0.683
AAAAAAAGUGUGUAUUAGGAGGAGAGAGAGGAAAAAAAGAGGAAAGAAGGAAAAAAAAAAGAAUUAAAAAAAAAAAAAAGAAAAACAGAA: 0.436
ACCAUGCAGGUGGGCAUCUUUGGGAAGUGGGGCAAGGGGGGGAUAGGGAGGGGGGUAACACUUUGGGAACAGGGGGUCCCAGGUCGUUUC: 0.158
UGCAGUCGAGCCAGCACCUGUUUCUGGACCUGCCUAAGGUAAGUGAGCUUUUCUCUCAACCUAGUUUUCAGGAGGCCUCUUCUGUCCCCU: 0.222
UCAAGUCCUGUGCUACACAUCGUAUGUACCGAAUCGGGUUGGGUUGGGUUGGGGAAAGUAUUAUGUUACGCCGUUCGGAUCUGCACUUCC: 0.243
CACAGACAACAAAAACCCACACAGACACAGAGGGAAGGGGUUGGGAUGGGGACAGGGUGCACAGCAGGGCGGGGUAGGACCCCAGCCCCU: 0.696
UCCUGUGCUACACAUCGUAUGUACCGAAUCGGGAAAAAAAGGGUUUUUGGGUUUUUGGGAAAGUAUUAUGUUACGCCGUUCGGAUCUGCA: -1.91
AGUCCUGUGCUACACAUCGUAUGUACCGAAUCGGGUUUUUUUGGGUGGGAAAAAGGGAAAGUAUUAUGUUACGCCGUUCGGAUCUGCACU: -0.798
UAGCCCUGGUGGCAUGCGGGGAGGAAGAGGUGGCCUCAUGGAUCGUGGUGGUCCCGGUGGAAUGUUCAGAGGUGGCCGUGGUGGAGACAG: 0.701
UGUGCUACACAUCGUAUGUACCGAAUCGGGAAAAAAAGGGGAAAAAAAGGGAAAAAAAGGGGAAAGUAUUAUGUUACGCCGUUCGGAUCU: 0.32
ACCAUGCAGGUGGGCAUCUUUGGGAAGUGGGGCAAGGGGGGGAUAGGGAGGGGGGUAACACUUUGGGAACAGGUGGUCCCAGGUCGUUUC: -0.241

Sample 2 — method: competition protein-binding microarray; form: double-stranded DNA, one strand shown; matrix: in vitro; tested at: 2 µM; with: Cbf1 competitor, 0.05 µM; reading: higher = stronger binding; measurement: fluorescence intensity; shared flanks, not repeated: … GTCTTGATTCGCTTGACGCTGCTG
Target: Phosphate system positive regulatory protein PHO4, full length, GST-tagged (PHO4, Saccharomyces cerevisiae, UniProt P07270, residues 1-312)
Setting: whole 60-bp probe, lowest competitor level
Target sequence (chain): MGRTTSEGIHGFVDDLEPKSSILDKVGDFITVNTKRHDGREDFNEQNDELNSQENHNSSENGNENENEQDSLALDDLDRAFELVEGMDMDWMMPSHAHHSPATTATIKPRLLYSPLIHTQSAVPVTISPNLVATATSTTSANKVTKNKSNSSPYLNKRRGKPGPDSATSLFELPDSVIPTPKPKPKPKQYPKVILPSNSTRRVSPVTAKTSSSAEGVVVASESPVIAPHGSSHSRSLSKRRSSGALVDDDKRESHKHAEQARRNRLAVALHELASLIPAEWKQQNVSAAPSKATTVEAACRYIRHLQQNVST
TCATTCAGCATTCTCTGCATGACAGCTCTGGCTTCA: 3900 a.u.
CGGGGTTAAGTTTGCAGCGTGGGTGGCTTGCAGCAG: 9410 a.u.
CTGGTCCTTCTTTATCACATGTCTTCATGGCTTTCA: 9210 a.u.
TTGCTTGCGCTTCTGCATGTGCTTGTGCTTGTGCTT: 9550 a.u.
TGCGCAACAACTTGTGTAGTGGGTGTATGTCTAGAA: 5050 a.u.
GTCTTGTCTCATTTTCACGTGGTGTTCCCCACTTCA: 13600 a.u.
CGGGGTTAAGTTTTTCACGTGCTATGCTTGCAGCAG: 13100 a.u.
CCGGTCCTTTGCTGGCACGTGAATTGGATAGTACAT: 15600 a.u.
GCTATTGATCAAGGCCACATGCAAAATAGGGAAGGG: 7770 a.u.
CGTCCTAGTGATTGTCACGCTACTTCCATGAGGAAG: 5660 a.u.
TTTGTGTGCTACCTGCTCGTGACGGCGGTCTTTTTG: 6750 a.u.
ATCATCGTAGATACCCACGTATAAATCAGTAACGCC: 7050 a.u.
CGTCCTAGTGATTCTCACGTGTTTTCCATGAGGAAG: 13000 a.u.
TTGCACTAGACGAGTCACGTGGCCGTTAATCCCCCG: 16800 a.u.
CACCGATTTGGTAATGCCGTGATGGAACCTCGAGGA: 3850 a.u.
CGAATGCTCTTGAGCATCGTGGCCGTCACCCGGTAT: 8930 a.u.
TTTCTTCGTCTTCGTCCCGTGAGTCCGGACTCAGAA: 4040 a.u.
AAGGCAACTTCCCTACACGTTGAAGTGCCAATTTTT: 9170 a.u.
AGGCATACCCTTGTTCATGTGGGGGCATTCAATGGG: 7200 a.u.
CATACCCAACCTTGACCGGTGGGTGAAGATATTTGT: 4140 a.u.
CTAACGAAGGTTTGATTCGTGGGTGACAAGCCAAGT: 6170 a.u.
GTCTTGTCTCATTGCGATGTGGGTGTCCCCACTTCA: 4400 a.u.
AAAGCGGTAATTTGTCACTGAACTTCACATATCTAT: 3470 a.u.
AGGTTTCCTTACTGGCACGTGCGGACCAAGCTCTAC: 21400 a.u.
CTTCTGTAAATTTGAGTGGTGGGTGGACGCGCCCCG: 4330 a.u.

Sample 3 — method: protein-binding microarray; form: double-stranded DNA, one strand shown; matrix: in vitro; tested at: 2200 nM top; setting: 60-bp whole probe; with: salmon DNA 0.4 mg/ml; reference: random background probes; reading: higher = stronger binding; measurement: fitted relative affinity; shared flanks, not repeated: GCCTAGCAC … GTCTTGATTCGCTTGACGCTGCTG
Target: Interferon regulatory factor 7, full length, phosphomimetic (IRF7, Homo sapiens, UniProt Q92985, residues 1-503, S471D/S472D/S475D/S476D/S477D/S483D/S484D/S487D)
Sequence of UniProt Q92985 (whole entry, unmodified, looked up): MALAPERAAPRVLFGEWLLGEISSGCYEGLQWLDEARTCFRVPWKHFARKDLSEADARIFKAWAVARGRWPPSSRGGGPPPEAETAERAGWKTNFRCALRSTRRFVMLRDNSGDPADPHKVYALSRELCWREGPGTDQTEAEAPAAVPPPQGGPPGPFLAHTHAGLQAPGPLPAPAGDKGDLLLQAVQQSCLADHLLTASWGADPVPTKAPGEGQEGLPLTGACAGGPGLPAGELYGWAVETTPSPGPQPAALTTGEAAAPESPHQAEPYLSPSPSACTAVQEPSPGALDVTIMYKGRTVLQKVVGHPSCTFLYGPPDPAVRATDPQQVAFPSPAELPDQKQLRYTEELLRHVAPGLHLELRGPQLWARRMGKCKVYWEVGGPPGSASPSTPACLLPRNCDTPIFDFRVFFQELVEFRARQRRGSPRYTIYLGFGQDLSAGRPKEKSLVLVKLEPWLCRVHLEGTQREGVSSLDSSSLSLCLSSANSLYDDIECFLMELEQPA
AGTTTATTTATTTTTACATTGTGCTAG: 1.11 z-score
TTCAGTTTTCTTTTCCATTTGTGCTAG: 5.94 z-score
TTAGGACTGGGTCTCGATTAGTGCTAG: -0.211 z-score
TTAGAACAGGGGTTTCGATTAGTGCTA: 2.34 z-score
TTATAACTGGGGACTGGATTAGTGCTA: -0.0142 z-score
TCACGGCTCGTTATCCTACTGTGCTAG: 1.11 z-score
TCATTTTACTTTCTATGACTGTGCTAG: 3.71 z-score
GACGGTATCCTTTTGCTGACGTGCTAG: 1.09 z-score
GACGATATCGGGACTGGGGACGTGCTA: -0.409 z-score
TCATGGCTCCCTATAAAACTGTGCTAG: 0.338 z-score
CCACTTTTATTTTCAGTATTGTGCTAG: 3.99 z-score
GCCGGTATCGGTTTCGGGACGTGCTAG: 4.4 z-score
CACAGAACATATTAGTATATGTGCTAG: -0.0603 z-score
GACGGACTGGGGACTAGGGACGTGCTA: -1.03 z-score
TTAGGTATCGTACTGGGTTAGTGCTAG: 0.538 z-score
GCCGATTTCGGGTTTCGAGACGTGCTA: 6.22 z-score
TAAATTTTCACGGTGGGTTCGTGCTAG: 0.384 z-score
TGTCCTGTCTACATGGGTGTGTGCTAG: 0.711 z-score
GACGGTATCGGGACTGGCGACGTGCTA: -0.428 z-score
TCAAATATATGTATATAACTGTGCTAG: 0.00398 z-score
GACGGTTTCGGGAATGGGGACGTGCTA: 2.87 z-score
TCAGATTCCAGTTTCGATTAGTGCTAG: 7.1 z-score
TTAGGTTTACTTTTCCTTTAGTGCTAG: 3.37 z-score
TCATATATATTATATATTACTGTGCTA: 0.462 z-score
TCATCTTTCCCTGCCCCATGGTGCTAG: 1.35 z-score

Sample 4 — method: protein binding microarray; form: double-stranded DNA, one strand shown; matrix: in vitro; tested at: not given; reference: not given; reading: higher = stronger binding; measurement: E-score
Target: Histone acetyltransferase KAT6A, winged helix 1, GST fusion (KAT6A, Homo sapiens, UniProt Q92794, residues 1-85)
Setting: 8-mer, flanks averaged, mean of 2 arrays, mostly near background
Target sequence (chain): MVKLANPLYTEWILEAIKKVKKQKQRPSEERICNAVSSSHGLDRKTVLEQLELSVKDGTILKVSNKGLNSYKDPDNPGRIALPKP
AACTACCT: -0.0939
GCTATAAC: 0.0625
TGGACCCA: -0.269
AGGAGGAA: -0.142
ACGCAAGC: 0.117
ACTGCTGC: -0.0272
CCCTGTGC: -0.00137
AAAACTAT: -0.0303
AGTCTAAT: -0.0849
CCACAGCC: -0.214
GCTAGTGA: -0.0407
GTAAAGTA: 0.00439
CTAGCCAA: -0.111
ACTGGGCC: -0.0866
ATAACGTA: -0.0579
AACTCGGC: 0.108
CACTTATC: -0.266
CGCTCTGA: 0.218
CTTAACAC: 0.013
CGATAATC: 0.133
ATAAGACG: 0.0133
AATGGAGT: -0.119
CCGCGCGC: 0.481
GTCCATGA: -0.0564
GACCCGTC: 0.25
